Results pooled from the literature.
Numbered parts are unrelated; each lists some results of a single study. Positions count from the first letter of the parent shown.

Set 1 — method: protein-binding microarray; molecule type: double-stranded DNA, one strand shown; medium: in vitro; tested at: 250 nM; setting: 60-bp whole probe; added: salmon DNA 0.4 mg/ml; reference: random background probes; reading: higher = stronger binding; all sequences stand within: GCCTAGCAC … GTCTTGATTCGCTTGACGCTGCTG
Target: Interferon regulatory factor 5, full length, phosphomimetic (IRF5, Homo sapiens, UniProt Q13568-2, residues 1-514, K96S/S451D/S453D/S456D/S462D)
For `TCAGCTTTCCTTTGCTTACTGTGCTAG`, the log fluorescence was 0.861 z-score.
For `GACGAACTGGGGTACCGAGACGTGCTA`, the log fluorescence was -0.422 z-score.
With `TCAATTATTGCTTCCTCACTGTGCTAG` the log fluorescence was 0.492 z-score.
For `TTAGGAATCCTTATCCTTTAGTGCTAG`, the log fluorescence was -0.0103 z-score.
With `CCCTTTCTCAACCTCCAGAGGTGCTAG` the log fluorescence was 0.629 z-score.
`TCAGGTATGCTCATGACACTGTGCTAG` has a log fluorescence of -0.139 z-score.
`TTAGGTTCCGGGTATCGGTTAGTGCTA` gave a log fluorescence of 4.07 z-score.
`TTAGATTCCAGTTTCGAGTAGTGCTAG` has a log fluorescence of 6.69 z-score.
`GACGAACTGAGACTGGTGACGTGCTAG` has a log fluorescence of -0.428 z-score.
The log fluorescence of `TTACAGATGTTTTTCATTTTGTGCTAG` is reported as 1.66 z-score.
For `TCACTCGTCTCTATCAAACTGTGCTAG`, the log fluorescence was 0.569 z-score.
The log fluorescence of `TTAGGTATCGGGACTCGGTTAGTGCTA` is reported as 1.83 z-score.
`ACAAGTTTCTCCTTTCGGAAGTGCTAG` has a log fluorescence of 5.48 z-score.
`GACGGTTTCGGTCGCGGGACGTGCTAG` gave a log fluorescence of 9.13 z-score.
For `TTAGGGATCGGGTTTCGGTTAGTGCTA`, the log fluorescence was 7.61 z-score.
For `TTAGGTATCGACTTTCGGTTGGTGCTA`, the log fluorescence was 9.52 z-score.
`TATGTTCCCTATTTAAGGCAGTGCTAG` has a log fluorescence of 0.399 z-score.
`GACGGACTGAACTATCGGGACGTGCTA` gave a log fluorescence of 0.882 z-score.
For `TTAGGACTGGACACTGTGTTAGTGCTA`, the log fluorescence was -0.729 z-score.

Set 2 — method: protein binding microarray; molecule type: double-stranded DNA, one strand shown; medium: in vitro; tested at: not given; reference: not given; reading: higher = stronger binding
Target: Histone acetyltransferase KAT6A, winged helix 1, GST fusion (KAT6A, Homo sapiens, UniProt Q92794, residues 1-85)
Setting: 8-mer, flanks averaged, mean of 2 arrays, mostly near background
Residues (chain): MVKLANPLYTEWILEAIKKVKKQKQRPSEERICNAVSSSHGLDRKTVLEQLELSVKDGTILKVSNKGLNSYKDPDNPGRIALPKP
`CATGGAGA` has an E-score of -0.246.
For `TAGTATAA`, the E-score was -0.0465.
`ACCCTTTC` gave an E-score of 0.0494.
With `CAACCCAC` the E-score was -0.156.
`CGAGATTC` has an E-score of -0.0258.
The E-score of `CCCGATTC` is reported as 0.0598.
`AGAATTAA` gave an E-score of -0.201.
For `CCAACAGA`, the E-score was -0.118.
The E-score of `CGCTGTAA` is reported as 0.189.
`GTAATGGA` has an E-score of -0.0958.
`ATAGGGAA` has an E-score of -0.199.
`CATGATAC` gave an E-score of -0.154.
The E-score of `GGTCGCTA` is reported as 0.145.
For `ATGTATAA`, the E-score was -0.145.
The E-score of `GCCCTCCC` is reported as 0.0845.
For `CAATCTAG`, the E-score was -0.126.
`ATTGTCAA` has an E-score of -0.128.
`CTCGCGTC` gave an E-score of 0.176.
The E-score of `ATGGAGCG` is reported as 0.0605.
The E-score of `AAGTCCCA` is reported as -0.0889.
`TCACTGCA` gave an E-score of -0.175.

Set 3 — method: DHFR PCA, deep sequencing; medium: yeast; added: (+)-ABA 0.39 µM; reference: wild-type fitted maximum; reading: higher = stronger binding
Target: ABI1, truncated, D143A, DHFR fusion (Arabidopsis thaliana)
Setting: methotrexate growth selection, single substitutions
Starting sequence: PYL1, truncated, DHFR fusion (Arabidopsis thaliana); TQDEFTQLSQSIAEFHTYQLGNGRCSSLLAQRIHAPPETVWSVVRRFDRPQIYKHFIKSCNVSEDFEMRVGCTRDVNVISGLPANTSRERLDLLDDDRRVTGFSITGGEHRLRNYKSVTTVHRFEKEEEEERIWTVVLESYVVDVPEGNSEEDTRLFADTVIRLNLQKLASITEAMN
`E14M`: “relative binding score” 8.93%.
Under “relative binding score”, `R163A` is recorded as 43.5%.
Under “relative binding score”, `I79Q` is recorded as 16.7%.
`T1P`: “relative binding score” 45.6%.
For `L91F`, “relative binding score” read -0.456%.
`H16L` — result for “relative binding score”: 1.52%.
For `I52Q`, “relative binding score” read 35.7%.
`E64W`: “relative binding score” 6.66%.
Under “relative binding score”, `S117T` is recorded as -0.161%.
For `T173N`, “relative binding score” read 6.2%.
Under “relative binding score”, `V136D` is recorded as -7.82%.
`V145Q`: “relative binding score” -19.6%.
For `Q19G`, “relative binding score” read 17.1%.
`S117V`: “relative binding score” -8.69%.
`E151K` — result for “relative binding score”: 32%.
For `L93W`, “relative binding score” read -1.91%.
`K168V`: “relative binding score” 10.2%.
`P37L`: “relative binding score” 9.53%.

Set 4 — method: RNA Bind-n-Seq; molecule type: RNA; medium: in vitro; tested at: 200 nM; setting: whole 134-nt RNA, ends assumed; added: 150 mM LiCl; reference: input library; reading: higher = stronger binding; all molecules: 7-deaza-guanosine replaces G
Target: Ras GTPase-activating protein-binding protein 1, full length (G3BP1, Homo sapiens, UniProt Q13283)
Sequence of UniProt Q13283 (whole entry, looked up): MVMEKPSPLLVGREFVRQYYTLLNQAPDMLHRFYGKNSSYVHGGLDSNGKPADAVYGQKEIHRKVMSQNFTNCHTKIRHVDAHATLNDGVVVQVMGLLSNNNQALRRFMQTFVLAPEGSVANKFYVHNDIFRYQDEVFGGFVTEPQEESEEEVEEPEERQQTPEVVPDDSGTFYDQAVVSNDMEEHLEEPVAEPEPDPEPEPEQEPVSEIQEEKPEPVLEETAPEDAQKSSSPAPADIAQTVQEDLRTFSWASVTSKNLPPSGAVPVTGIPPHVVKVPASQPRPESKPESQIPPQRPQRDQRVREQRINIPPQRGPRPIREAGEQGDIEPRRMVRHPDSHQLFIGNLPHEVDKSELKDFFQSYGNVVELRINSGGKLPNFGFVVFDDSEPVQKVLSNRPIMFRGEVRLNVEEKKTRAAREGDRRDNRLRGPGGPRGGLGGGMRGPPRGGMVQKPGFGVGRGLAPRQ
The log2 enrichment of `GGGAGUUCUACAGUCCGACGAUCGCAGGAAGUAAAAACAAAUGGAAAUGCUUCGGAUAGUGGCAGGUGUGGGGGUUGCUAAGGAAAGGGUGGGAUGGGAGUGGGUAAAGAGUUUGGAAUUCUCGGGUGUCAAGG` is reported as 0.305.
For `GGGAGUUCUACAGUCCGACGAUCUAACUUUUGAGGAGGAUCUGAUGGAUAUGGCAGUGGACGUGGAUUUGGGGAUGGCUAUAAUGGGUAUGGAGGAGGACCUGGAGGUGGCAAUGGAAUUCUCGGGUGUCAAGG`, the log2 enrichment was 0.0149.
For `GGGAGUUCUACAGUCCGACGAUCAAGUCCUGUGCUACACAUCGUAUGUACCGAAUCGGCCCCGGGCCCCGGGCCCCGGGAAAGUAUUAUGUUACGCCGUUCGGAUCUGCACUUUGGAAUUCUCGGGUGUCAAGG`, the log2 enrichment was -1.49.
`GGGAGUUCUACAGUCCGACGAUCUGGGAGGUGGAUUUUGUUUAUUUUUUUAGCUCAUUUCCAGGGGUCGGAAUUUUUUUUUAAUAUGUGUCAUGAAUAAAGUUGUUUUUGAAAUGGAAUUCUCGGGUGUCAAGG` gave a log2 enrichment of -0.717.
For `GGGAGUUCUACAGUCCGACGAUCUCAAGUCCUGUGCUACACAUCGUAUGUACCGAAUCGGGAAGGAAGGGGAAGGGGAAAGUAUUAUGUUACGCCGUUCGGAUCUGCACUUCCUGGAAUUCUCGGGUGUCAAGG`, the log2 enrichment was -0.141.
With `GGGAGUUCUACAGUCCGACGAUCUGUUCUGCAGAGGGGCGGUGUCAUUACUGAUGAAGAGGAAACCUCUAAGAAGAUAGCUGACCAGUUGGACAACAUUGUGGACAUGCGCGAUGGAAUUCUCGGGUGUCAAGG` the log2 enrichment was -2.72.
The log2 enrichment of `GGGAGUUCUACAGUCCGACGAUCUUGCUAACUUCAAGAUAGAGCCUCCUGGACUUUUCCGUGGCCGCGGCAACCACCCCAAGAUGGGCAUGCUGAAGAGACGAAUCAUGCCCGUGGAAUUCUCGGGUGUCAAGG` is reported as 0.42.
`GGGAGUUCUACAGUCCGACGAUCCACAGACAACACGCACCCACAGAGACACAGAGGGAAGGGGUUGGGAUGGGGACAGGGUGCACAGCAGGGCGGGGUAGGACCCCAGCCCCUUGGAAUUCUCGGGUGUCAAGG` has a log2 enrichment of 0.753.

Set 5 — target: CCNB2, cyclin fold, Cln2 fusion (human); method: yeast growth competition, sequencing; medium: yeast; setting: weak parent motif; reference: not given; reading: higher = stronger binding
Starting sequence: SCAPER docking peptide (human); SNARRSLNFGGST; partner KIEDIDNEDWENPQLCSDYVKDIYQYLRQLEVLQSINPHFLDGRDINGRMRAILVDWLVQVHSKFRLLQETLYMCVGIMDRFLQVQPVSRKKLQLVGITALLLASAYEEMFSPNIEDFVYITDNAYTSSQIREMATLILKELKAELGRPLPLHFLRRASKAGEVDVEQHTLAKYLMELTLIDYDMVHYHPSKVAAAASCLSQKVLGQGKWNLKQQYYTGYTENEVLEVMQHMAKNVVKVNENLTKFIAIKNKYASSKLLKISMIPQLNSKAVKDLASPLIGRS
Under “normalised enrichment score”, `T13N` is recorded as 0.24.
Under “normalised enrichment score”, `R5S` is recorded as 0.502.
`N2Y`: “normalised enrichment score” -0.267.
Under “normalised enrichment score”, `S12G` is recorded as 0.424.
Under “normalised enrichment score”, `S6E` is recorded as -0.461.
For `R5M`, “normalised enrichment score” read 0.262.
`S1K`: “normalised enrichment score” 0.1.
For `S6K`, “normalised enrichment score” read 0.602.
Under “normalised enrichment score”, `L7W` is recorded as 0.238.
For `G11D`, “normalised enrichment score” read 0.0537.
For `N8G`, “normalised enrichment score” read 0.209.
`T13S` — result for “normalised enrichment score”: -0.155.
`S1N` — result for “normalised enrichment score”: 0.213.
`T13R`: “normalised enrichment score” 0.546.
Under “normalised enrichment score”, `N2F` is recorded as -0.0506.
Under “normalised enrichment score”, `L7V` is recorded as -0.0542.
Under “normalised enrichment score”, `N2W` is recorded as -0.117.
Under “normalised enrichment score”, `N8H` is recorded as 0.302.
`T13H`: “normalised enrichment score” 0.015.
Under “normalised enrichment score”, `F9H` is recorded as -0.00784.
`T13I`: “normalised enrichment score” 0.329.
For `R5W`, “normalised enrichment score” read -0.235.
For `A3E`, “normalised enrichment score” read 0.484.
`S1I` — result for “normalised enrichment score”: 0.239.
Under “normalised enrichment score”, `L7C` is recorded as 0.354.

For quick reference, copied from above (set 5):
Under “normalised enrichment score”, `L7W` is recorded as 0.238.
Under “normalised enrichment score”, `N2F` is recorded as -0.0506.
Under “normalised enrichment score”, `N2W` is recorded as -0.117.
Under “normalised enrichment score”, `S12G` is recorded as 0.424.
For `A3E`, “normalised enrichment score” read 0.484.
Under “normalised enrichment score”, `L7C` is recorded as 0.354.
`T13S` — result for “normalised enrichment score”: -0.155.
Under “normalised enrichment score”, `N8H` is recorded as 0.302.
For `G11D`, “normalised enrichment score” read 0.0537.
For `S6K`, “normalised enrichment score” read 0.602.
For `N8G`, “normalised enrichment score” read 0.209.
`N2Y`: “normalised enrichment score” -0.267.
Under “normalised enrichment score”, `L7V` is recorded as -0.0542.
